Published values gathered from unrelated publications.
Numbered parts are unrelated; each lists some results of a single study.

Set 1 — technique: RNA Bind-n-Seq; form: RNA; matrix: in vitro; tested at: 365 nM; baseline: no-protein control; direction: higher = stronger binding
Target: RNA binding protein fox-1 homolog 2, RRM domain, GST-SBP tag (RBFOX2, Homo sapiens, UniProt O43251-10, residues 100-194)
Notes: natural RNA segment, single round, ends assumed
Residues (chain): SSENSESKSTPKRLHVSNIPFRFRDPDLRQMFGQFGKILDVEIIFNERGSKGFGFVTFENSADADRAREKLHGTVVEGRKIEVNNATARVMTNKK
`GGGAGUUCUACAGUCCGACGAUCAAUCAGGUAGGAAAUCACCUUUGACUUAGCUUCCAGUAGUCAUUACCACCUUUUACUGCACAAUUCACAAGCAUGUUUUCCUGGUGAAUUGGACUGAAAAUUACAUUUUGUGGAAUUCUCGGGUGCCAA` — result for “RBNS enrichment (R)”: 11.7.
`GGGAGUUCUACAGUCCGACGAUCAAUGUUCCAAGACACUUGAGAGAAAAGACCUAGGAAAGAGAAGGUUCCUGGUGAGCCUGUGGUCUAGUCCCCCUAGUCCAGCUGUUGAAGACCAACUGCUUCCUGAUGAUUGGAAUUCUCGGGUGCCAA`: “RBNS enrichment (R)” 0.339.
For `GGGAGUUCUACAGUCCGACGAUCUGAGCUUGCUUGUGUGUGUGUGCGCGUGUGCGUGUGUUGCUCCAAUAAAGUUUGUACACUUUCUGAAUAGUAUCUGAUUUGUUGCGCCAGGGCCCUCUGAUACCAGCAUUUGGAAUUCUCGGGUGCCAA`, “RBNS enrichment (R)” read 2.33.
Under “RBNS enrichment (R)”, `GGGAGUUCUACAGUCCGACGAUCAGUCCUCUGGUUAUAGUAUAUAAGAGCCUGAGGAGGUCUGGCAAGAUAGAUGGUGUAUUAUUUAUGGAUCAGGCUGCUGCAUACAAACCUUGCAUACUAUUAUGCAGCUUUGGAAUUCUCGGGUGCCAA` is recorded as 0.762.
For `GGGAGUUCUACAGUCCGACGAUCACGGAAAAUUCCCCAGAUCACGUUUGGAUUUAAAAACUCAUCCCUUGUCGUGCUUCAAUGCAUGCCAUUUGUCACUUACCAUACUUCACCAUGGCCGAGCUUCAUGUCACUGGAAUUCUCGGGUGCCAA`, “RBNS enrichment (R)” read 0.674.
For `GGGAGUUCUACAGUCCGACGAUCUUGGAGGUUCUGAAGAUUCUGUUAUAGAGCAAGAAAUGGCUUAAUUUUUUUUUUUAAUUGGAAUUUACCAGUUUAUUGUUUAGCAGUAAUUACCCCAGGUAACACUGGGCUGGAAUUCUCGGGUGCCAA`, “RBNS enrichment (R)” read 0.5.
Under “RBNS enrichment (R)”, `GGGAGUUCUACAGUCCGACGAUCGUCACGGUACAGUGUUAAUUCACGCCUGUGUGUGUAACAGGACACUCAGCAAUUAUCUUAAGAACACACAGCAGCAUUGACGUGUAGAAAGAGAAUAGUAAAUGCCUUUGUGGAAUUCUCGGGUGCCAA` is recorded as 0.474.
Under “RBNS enrichment (R)”, `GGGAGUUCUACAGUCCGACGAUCUAUCAUAUAUAUGGGUACUCUGUAAUAUCUAAAAGCUUAGAAAUGGGAUCUUGCUCACAAGAAUCACUUUUAAGAUCUUUUAGGGCUGUUAAUUUUAUUUUUCUCAGUGUUGGAAUUCUCGGGUGCCAA` is recorded as 0.378.
Under “RBNS enrichment (R)”, `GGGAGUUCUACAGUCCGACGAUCUGAGACACAGCCUUCUGCCUCCUCGCCUCUCCUGGACUGGCUUCCUCUUUGAGAAAAUGCACAAAGCCCUGGGAGAUGACAAGCACAAGGACUGACUCAAGCUGUGUCUUUGGAAUUCUCGGGUGCCAA` is recorded as 1.02.
`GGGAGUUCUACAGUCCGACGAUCCUCGGCUCUAGACUUGGGGGAGGGGUUGCCACAGGCCUCCCAGUCUAAAACCCACCUUUGUCUGAGGUGCCGGGAGUAGCCAUGGUACCCCCUUCCUGGGCAUCCGUUCGUGGAAUUCUCGGGUGCCAA` — result for “RBNS enrichment (R)”: 0.443.
`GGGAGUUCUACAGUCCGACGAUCACUAAGCAUGGUCUGUAGCUAUUAAAAGCACACAAUCUGAAGGGCUGUAGAUGCACAGUAGUGUUUUCCCAGAGCAUGUUCAAAAGCCCUGGGUUCAAUCACAAUACUGAUGGAAUUCUCGGGUGCCAA`: “RBNS enrichment (R)” 8.92.
`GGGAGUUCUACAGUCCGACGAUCGCAAGGAGUUUCAGAAGCUAGACAUGUCUGCAAUGAUUCAAAUUUGGUACGAAAGGACUGCCAACCUAUUGGCUGAUCAUGCUUUUUAAAUUCAGAAGAGUGAUUCUAAAUGGAAUUCUCGGGUGCCAA` — result for “RBNS enrichment (R)”: 0.215.

Set 2 — technique: universal PBM; form: double-stranded DNA, one strand shown; matrix: in vitro; tested at: not given; direction: higher = stronger binding
Target: Sal-like protein 4, full length isoform B (SALL4, Homo sapiens, UniProt Q9UJQ4-2, residues 1-616)
Notes: 8-mer, flanks averaged, mean of replicates
`ACGTTGGC` gave an E-score of -0.102.
With `GCAATCGA` the E-score was -0.105.
With `CGGTACCC` the E-score was -0.124.
With `AGGCGAAG` the E-score was -0.0727.
With `AGAATCTC` the E-score was -0.0426.
For `CCTTGCGC`, the E-score was -0.225.
`GTTCGTAA` gave an E-score of 0.0736.
`ATCGAAAA` gave an E-score of 0.275.
The E-score of `CTTTATGC` is reported as 0.125.
For `CGATCCAC`, the E-score was -0.104.
For `GGAGATAA`, the E-score was 0.14.
For `CTACTCGA`, the E-score was 0.0264.
The E-score of `ACAAATGG` is reported as 0.141.
The E-score of `ACCCGTGG` is reported as -0.233.
`ACATCGCG` has an E-score of -0.3.
`GGGCTGAA` gave an E-score of -0.22.
The E-score of `CTGCCGTA` is reported as -0.137.
With `ATAGTGCA` the E-score was 0.212.
With `AGACCGCA` the E-score was -0.184.
`CCCACTTA` gave an E-score of 0.0944.
For `ATTTGTCA`, the E-score was 0.149.
`CGAGTAAA` gave an E-score of 0.0687.
`ACAAGACT` has an E-score of 0.0962.
`GAATTGCA` has an E-score of 0.0935.
For `AACCCTTC`, the E-score was 0.0983.

Set 3 — technique: RNA Bind-n-Seq; form: RNA; matrix: in vitro; tested at: 200 nM; notes: whole 134-nt RNA, ends assumed; added: 150 mM KCl; baseline: input library; direction: higher = stronger binding
Target: Ras GTPase-activating protein-binding protein 1, full length (G3BP1, Homo sapiens, UniProt Q13283)
Sequence of UniProt Q13283 (whole entry, looked up): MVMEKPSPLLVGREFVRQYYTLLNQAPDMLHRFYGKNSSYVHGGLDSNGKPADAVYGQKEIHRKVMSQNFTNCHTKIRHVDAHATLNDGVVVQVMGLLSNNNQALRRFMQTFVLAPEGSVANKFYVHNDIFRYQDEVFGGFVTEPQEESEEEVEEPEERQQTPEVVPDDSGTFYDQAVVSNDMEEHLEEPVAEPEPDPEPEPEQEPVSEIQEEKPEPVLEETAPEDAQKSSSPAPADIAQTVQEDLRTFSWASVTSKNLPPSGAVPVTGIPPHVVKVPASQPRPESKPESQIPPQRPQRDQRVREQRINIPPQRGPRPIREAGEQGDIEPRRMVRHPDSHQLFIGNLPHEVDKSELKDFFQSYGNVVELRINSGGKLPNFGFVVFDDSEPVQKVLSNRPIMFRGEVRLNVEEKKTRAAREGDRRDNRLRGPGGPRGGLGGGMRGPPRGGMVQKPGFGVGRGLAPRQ
`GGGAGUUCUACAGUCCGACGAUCUUCCGCCUCUUUCCGGAGUACAAGAACAACAAACUUUUCCUGACCGGGGAGAGCUAUGCUGGCAUCUACAUCCCCACCCUGGCCGUGCUGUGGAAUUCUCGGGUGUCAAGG` gave a log2 enrichment of 0.8.
`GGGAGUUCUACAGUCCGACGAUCCCUGUGCUACACAUCGUAUGUACCGAAUCAAACCCCCCCAAACCCCCCCAAAUUUUUAAAAAAGUAUUAUGUUACGCCGUUCGGAUCUGCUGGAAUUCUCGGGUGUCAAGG` has a log2 enrichment of 0.997.
The log2 enrichment of `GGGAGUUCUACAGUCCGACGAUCAAGUCCUGUGCUACACAUCGUAUGUACCGAAUCGGGUUUGGGAGGGAAAAAAAGGGAAAGUAUUAUGUUACGCCGUUCGGAUCUGCACUUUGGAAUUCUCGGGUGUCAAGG` is reported as -0.0958.
With `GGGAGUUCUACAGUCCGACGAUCUAACUUUAGAGGAGGAUCUGAUGGAUAUGGCAGUGGACGUGGAUUGGGGGAUGGCUAUAAUGGGUAUGGAGGAGGACCUGGAGGUGGCAAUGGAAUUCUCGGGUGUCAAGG` the log2 enrichment was 0.447.
`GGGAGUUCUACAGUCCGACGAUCUAACUUUAGAGGAGGAUCUGAUGGAUAUGGCAGUGGACGUGGAUUUGGGGAUGGCUAUAAUGGGUGUGGAGGAGGACCUGGAGGUGGCAAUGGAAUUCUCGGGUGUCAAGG` gave a log2 enrichment of 0.53.
`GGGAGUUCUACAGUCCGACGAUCCAAGUCCUGUGCUACACAUCGUAUGUACCGAAUCGGAAAAAGGAAAAAGGAAAGGAAAGUAUUAUGUUACGCCGUUCGGAUCUGCACUUCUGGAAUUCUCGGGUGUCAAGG` gave a log2 enrichment of -1.17.
For `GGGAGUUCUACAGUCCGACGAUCGUCCUGUGCUACACAUCGUAUGUACCGAAUCAAAUUUAAACCCCCAAAUUUUUUUAAAAAAGUAUUAUGUUACGCCGUUCGGAUCUGCACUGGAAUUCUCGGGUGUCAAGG`, the log2 enrichment was 0.0629.
The log2 enrichment of `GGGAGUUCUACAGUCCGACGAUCCAAGUCCUGUGCUACACAUCGUAUGUACCGAAUCGGAAAAAGGAAAGGAAAAAGGAAAGUAUUAUGUUACGCCGUUCGGAUCUGCACUUCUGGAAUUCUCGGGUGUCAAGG` is reported as -0.941.
`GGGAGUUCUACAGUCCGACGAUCCUGUGCUACACAUCGUAUGUACCGAAUCGGUUUUUUUGGGGUUUUUUUGGGGUUUUUUUGGGAAAGUAUUAUGUUACGCCGUUCGGAUCUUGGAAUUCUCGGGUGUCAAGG` gave a log2 enrichment of -0.86.
For `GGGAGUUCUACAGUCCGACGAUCAAGUCCUGUGCUACACAUCGUAUGUACCGAAUCGGGGUGGGGAAAGGGGUUUGGGGAAAGUAUUAUGUUACGCCGUUCGGAUCUGCACUUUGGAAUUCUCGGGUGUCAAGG`, the log2 enrichment was 0.636.
With `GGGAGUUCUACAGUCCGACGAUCCCUGUGCUACACAUCGUAUGUACCGAAUCGGGGUUUUUUUGGGGUUUGGGGUUUUUGGGGAAAGUAUUAUGUUACGCCGUUCGGAUCUGCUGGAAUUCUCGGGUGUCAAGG` the log2 enrichment was 0.164.
`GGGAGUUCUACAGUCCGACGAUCUCCUGUGCUACACAUCGUAUGUACCGAAUCGGGAAAAAGGGAAAAAGGGAAAAAAAGGGAAAGUAUUAUGUUACGCCGUUCGGAUCUGCAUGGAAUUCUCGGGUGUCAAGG` has a log2 enrichment of -0.288.
For `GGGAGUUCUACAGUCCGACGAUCAAGUCCUGUGCUACACAUCGUAUGUACCGAAUCGGGGUUUGGGGUUUGGGGUUUGGGAAAGUAUUAUGUUACGCCGUUCGGAUCUGCACUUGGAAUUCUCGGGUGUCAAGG`, the log2 enrichment was 0.193.
`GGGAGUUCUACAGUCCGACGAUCAGUCCUGUGCUACACAUCGUAUGUACCGAAUCGGUUUUGGGGUUUUGGGGUUUUGGGAAAGUAUUAUGUUACGCCGUUCGGAUCUGCACUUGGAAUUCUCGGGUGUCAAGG` has a log2 enrichment of -0.499.

Set 4 — technique: protein-binding microarray; form: double-stranded DNA, one strand shown; matrix: in vitro; tested at: 250 nM; notes: 60-bp whole probe; added: salmon DNA 0.4 mg/ml; baseline: random background probes; direction: higher = stronger binding; constant ends, left off below: GCCTAGCAC … GTCTTGATTCGCTTGACGCTGCTG
Target: Interferon regulatory factor 5, full length, phosphomimetic (IRF5, Homo sapiens, UniProt Q13568-2, residues 1-514, K96S/S451D/S453D/S456D/S462D)
`TCAGCTTTGACTCTTTCACTGTGCTAG` gave a log fluorescence of 1.37 z-score.
The log fluorescence of `GGCGGTCTCGGACTGGGGACGTGCTAG` is reported as -0.5 z-score.
For `GACGGTTTGCTTTCCCTGACGTGCTAG`, the log fluorescence was 0.789 z-score.
`AAGGTAGCACTTCACAGCAAGTGCTAG` gave a log fluorescence of -0.483 z-score.
The log fluorescence of `TTAGGTTTCCTATTGCTTTAGTGCTAG` is reported as 1.08 z-score.
With `TCATCTTTCCTTCTTGAACTGTGCTAG` the log fluorescence was 1.21 z-score.
The log fluorescence of `GACGGTCTCCTTTTCTTGACGTGCTAG` is reported as 0.0997 z-score.
For `ACATTCCATGAGCCCACTGGGTGCTAG`, the log fluorescence was -0.195 z-score.
For `GTAGATGCCTTTCTCTTGGAGTGCTAG`, the log fluorescence was 0.0767 z-score.
For `TCACATACTGATTTCCAACTGTGCTAG`, the log fluorescence was 0.393 z-score.
`TTAGGAGTGCTACTGCTTTAGTGCTAG` gave a log fluorescence of -0.587 z-score.
`GATGAACTGGGGTTTCGAGACGTGCTA` gave a log fluorescence of 1.14 z-score.
`CACGGTCTCGGACTGGGGACGTGCTAG` gave a log fluorescence of -0.468 z-score.
`TTAGATTTCGGGATTGGATTAGTGCTA` has a log fluorescence of 3.48 z-score.
`GACGATCTCCGACTGGAGACGTGCTAG` gave a log fluorescence of -0.522 z-score.
`GACGATATCGGGACGGGAGACGTGCTA` gave a log fluorescence of 0.814 z-score.
The log fluorescence of `TGCATTTTTTTTTTCTACTTGTGCTAG` is reported as 1.28 z-score.
With `TTAGGTATCGGGTTTCGTTTAGTGCTA` the log fluorescence was 6.29 z-score.

For quick reference, copied from above (set 2):
With `AGACCGCA` the E-score was -0.184.
`GGGCTGAA` gave an E-score of -0.22.
For `AACCCTTC`, the E-score was 0.0983.
For `CTACTCGA`, the E-score was 0.0264.
The E-score of `CTTTATGC` is reported as 0.125.
The E-score of `ACCCGTGG` is reported as -0.233.
